Experimental data from different studies.
Numbered parts are unrelated; each lists some results of a single study. Substitutions count along the parent as printed.
Sequence of UniProt P22607 (whole entry, unmodified, looked up): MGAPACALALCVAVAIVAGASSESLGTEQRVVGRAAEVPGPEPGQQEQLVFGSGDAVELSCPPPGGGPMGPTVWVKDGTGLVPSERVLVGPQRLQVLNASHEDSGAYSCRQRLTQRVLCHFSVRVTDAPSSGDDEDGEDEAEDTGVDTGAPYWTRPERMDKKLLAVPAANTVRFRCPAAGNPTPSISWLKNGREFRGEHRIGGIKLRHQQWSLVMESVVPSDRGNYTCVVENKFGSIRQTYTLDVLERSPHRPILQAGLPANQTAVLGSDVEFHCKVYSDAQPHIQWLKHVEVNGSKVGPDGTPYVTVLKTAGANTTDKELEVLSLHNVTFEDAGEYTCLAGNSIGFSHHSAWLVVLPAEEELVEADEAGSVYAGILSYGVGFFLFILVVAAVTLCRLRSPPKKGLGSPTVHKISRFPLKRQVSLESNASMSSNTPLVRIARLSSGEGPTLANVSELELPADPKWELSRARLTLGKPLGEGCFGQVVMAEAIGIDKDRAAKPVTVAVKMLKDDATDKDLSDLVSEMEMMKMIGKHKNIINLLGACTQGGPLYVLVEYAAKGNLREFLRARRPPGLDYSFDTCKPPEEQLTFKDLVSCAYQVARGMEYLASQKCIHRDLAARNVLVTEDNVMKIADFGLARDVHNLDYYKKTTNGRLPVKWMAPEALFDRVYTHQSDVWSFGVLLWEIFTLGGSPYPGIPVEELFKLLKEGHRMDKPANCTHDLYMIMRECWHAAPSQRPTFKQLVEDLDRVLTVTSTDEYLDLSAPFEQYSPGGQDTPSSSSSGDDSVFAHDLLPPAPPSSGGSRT
Sequence of UniProt P24723 (whole entry, looked up): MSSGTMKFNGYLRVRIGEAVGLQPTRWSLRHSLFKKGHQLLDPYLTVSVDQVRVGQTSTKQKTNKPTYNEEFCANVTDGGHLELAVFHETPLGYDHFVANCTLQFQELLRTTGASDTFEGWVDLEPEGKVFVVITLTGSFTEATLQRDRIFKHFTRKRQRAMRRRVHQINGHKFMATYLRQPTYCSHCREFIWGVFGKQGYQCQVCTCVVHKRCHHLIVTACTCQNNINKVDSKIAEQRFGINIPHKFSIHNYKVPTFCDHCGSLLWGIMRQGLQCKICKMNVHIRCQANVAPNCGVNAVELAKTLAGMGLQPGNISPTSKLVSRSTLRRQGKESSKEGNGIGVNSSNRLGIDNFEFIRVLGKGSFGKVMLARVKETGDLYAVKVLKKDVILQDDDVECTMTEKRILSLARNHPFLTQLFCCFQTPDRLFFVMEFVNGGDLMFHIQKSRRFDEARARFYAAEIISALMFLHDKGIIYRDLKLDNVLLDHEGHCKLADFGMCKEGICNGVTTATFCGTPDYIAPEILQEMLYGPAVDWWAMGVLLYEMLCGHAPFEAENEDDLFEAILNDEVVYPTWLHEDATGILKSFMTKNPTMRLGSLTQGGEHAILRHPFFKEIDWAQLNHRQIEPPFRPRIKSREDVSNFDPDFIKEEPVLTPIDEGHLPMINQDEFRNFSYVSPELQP
Sequence of UniProt P53355 (whole entry, looked up): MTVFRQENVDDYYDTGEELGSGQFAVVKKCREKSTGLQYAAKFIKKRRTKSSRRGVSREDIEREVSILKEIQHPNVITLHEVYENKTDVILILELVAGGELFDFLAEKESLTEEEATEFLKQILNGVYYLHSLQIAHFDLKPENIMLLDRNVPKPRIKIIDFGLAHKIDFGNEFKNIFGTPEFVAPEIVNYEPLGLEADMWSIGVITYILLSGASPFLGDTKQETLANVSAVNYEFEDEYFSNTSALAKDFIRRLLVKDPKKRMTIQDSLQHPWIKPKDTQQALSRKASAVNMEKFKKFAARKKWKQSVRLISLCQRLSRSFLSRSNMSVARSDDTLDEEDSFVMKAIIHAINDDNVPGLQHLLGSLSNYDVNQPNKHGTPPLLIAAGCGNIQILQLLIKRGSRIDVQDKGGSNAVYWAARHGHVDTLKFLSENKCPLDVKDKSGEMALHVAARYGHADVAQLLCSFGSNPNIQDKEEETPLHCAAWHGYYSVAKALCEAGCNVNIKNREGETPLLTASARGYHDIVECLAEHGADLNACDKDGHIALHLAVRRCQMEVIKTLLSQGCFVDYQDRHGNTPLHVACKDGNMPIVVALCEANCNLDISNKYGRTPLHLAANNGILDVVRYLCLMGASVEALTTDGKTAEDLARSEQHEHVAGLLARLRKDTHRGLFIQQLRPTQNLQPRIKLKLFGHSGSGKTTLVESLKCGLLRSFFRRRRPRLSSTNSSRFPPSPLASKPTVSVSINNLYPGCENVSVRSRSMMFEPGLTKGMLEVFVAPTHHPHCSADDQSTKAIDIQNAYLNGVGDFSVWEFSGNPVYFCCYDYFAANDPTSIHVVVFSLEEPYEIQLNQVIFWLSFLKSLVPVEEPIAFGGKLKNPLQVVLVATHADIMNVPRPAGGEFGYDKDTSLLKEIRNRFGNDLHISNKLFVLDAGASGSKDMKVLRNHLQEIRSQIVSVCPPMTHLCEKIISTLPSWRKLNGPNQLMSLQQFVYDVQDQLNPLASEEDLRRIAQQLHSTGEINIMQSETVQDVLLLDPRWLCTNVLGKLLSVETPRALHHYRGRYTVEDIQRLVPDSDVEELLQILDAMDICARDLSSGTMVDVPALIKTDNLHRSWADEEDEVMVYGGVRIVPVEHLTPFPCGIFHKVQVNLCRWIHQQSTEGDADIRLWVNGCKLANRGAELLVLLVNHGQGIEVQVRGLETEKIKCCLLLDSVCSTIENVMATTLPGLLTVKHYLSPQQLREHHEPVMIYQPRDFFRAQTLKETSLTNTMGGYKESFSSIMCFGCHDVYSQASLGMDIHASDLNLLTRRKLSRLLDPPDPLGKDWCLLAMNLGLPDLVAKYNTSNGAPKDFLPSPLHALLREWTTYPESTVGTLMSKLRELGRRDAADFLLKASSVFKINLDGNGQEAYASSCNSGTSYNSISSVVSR
Sequence of UniProt P54646 (whole entry, looked up): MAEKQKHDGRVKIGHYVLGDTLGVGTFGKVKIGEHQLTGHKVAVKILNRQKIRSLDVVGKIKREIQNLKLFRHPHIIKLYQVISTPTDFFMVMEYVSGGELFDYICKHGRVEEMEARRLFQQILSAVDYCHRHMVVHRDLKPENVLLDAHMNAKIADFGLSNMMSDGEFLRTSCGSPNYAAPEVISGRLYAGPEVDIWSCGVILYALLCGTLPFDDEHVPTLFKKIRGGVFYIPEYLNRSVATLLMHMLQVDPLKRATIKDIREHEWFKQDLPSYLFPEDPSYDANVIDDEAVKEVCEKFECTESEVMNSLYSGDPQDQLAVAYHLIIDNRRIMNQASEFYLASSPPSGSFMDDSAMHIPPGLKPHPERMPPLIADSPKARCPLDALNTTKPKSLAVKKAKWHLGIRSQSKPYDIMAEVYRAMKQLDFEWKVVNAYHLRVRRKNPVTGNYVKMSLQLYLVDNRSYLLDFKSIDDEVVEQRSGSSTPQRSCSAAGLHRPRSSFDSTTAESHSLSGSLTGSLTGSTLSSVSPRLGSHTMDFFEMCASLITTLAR
Sequence of UniProt P45983 (whole entry, looked up): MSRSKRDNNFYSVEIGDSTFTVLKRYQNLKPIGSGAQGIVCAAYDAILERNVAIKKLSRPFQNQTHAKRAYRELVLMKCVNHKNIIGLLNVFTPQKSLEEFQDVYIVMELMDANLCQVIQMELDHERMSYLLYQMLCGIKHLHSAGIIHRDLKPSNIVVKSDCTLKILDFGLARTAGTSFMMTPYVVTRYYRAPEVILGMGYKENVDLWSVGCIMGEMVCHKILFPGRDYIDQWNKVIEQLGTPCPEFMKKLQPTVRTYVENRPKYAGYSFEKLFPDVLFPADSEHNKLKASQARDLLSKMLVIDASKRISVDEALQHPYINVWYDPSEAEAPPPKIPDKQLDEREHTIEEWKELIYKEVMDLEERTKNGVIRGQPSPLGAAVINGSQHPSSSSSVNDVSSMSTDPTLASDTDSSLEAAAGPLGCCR
Sequence of UniProt Q9UIK4 (whole entry, looked up): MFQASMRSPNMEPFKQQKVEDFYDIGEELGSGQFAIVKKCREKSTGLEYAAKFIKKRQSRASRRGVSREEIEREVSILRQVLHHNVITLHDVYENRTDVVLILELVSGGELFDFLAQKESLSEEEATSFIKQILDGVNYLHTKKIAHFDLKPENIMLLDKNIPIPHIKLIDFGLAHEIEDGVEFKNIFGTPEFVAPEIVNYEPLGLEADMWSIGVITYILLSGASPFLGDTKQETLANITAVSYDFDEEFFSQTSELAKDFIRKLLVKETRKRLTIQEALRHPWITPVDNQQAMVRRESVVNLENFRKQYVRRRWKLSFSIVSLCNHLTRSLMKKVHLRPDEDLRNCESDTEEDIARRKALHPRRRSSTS

Study 1
Target: CREB3L1, bZIP domain (human)
Method: DHFR protein complementation
Matrix: yeast
Setting: single substitutions, most at no-binding floor
Reference: wild-type JUN-FOS pair
Reading: higher = stronger binding
Starting sequence: JUN, bZIP domain (human); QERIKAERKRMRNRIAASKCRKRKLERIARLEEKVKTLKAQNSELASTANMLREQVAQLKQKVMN; partner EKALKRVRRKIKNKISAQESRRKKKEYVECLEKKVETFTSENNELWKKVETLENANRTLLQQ
Substitution	binding fitness
R30Y	-1.38 natural log
K39D	-1.53 natural log
E32N	-1.58 natural log
I28Q	-1.44 natural log
E33D	-1.43 natural log
L31G	-1.48 natural log
K34T	-1.42 natural log
A57Y	-1.56 natural log

Study 2
Target: Centromere-binding protein 1, full length, His-tagged (CBF1, Saccharomyces cerevisiae, UniProt P17106, residues 1-351)
Sequence of UniProt P17106 (whole entry, looked up): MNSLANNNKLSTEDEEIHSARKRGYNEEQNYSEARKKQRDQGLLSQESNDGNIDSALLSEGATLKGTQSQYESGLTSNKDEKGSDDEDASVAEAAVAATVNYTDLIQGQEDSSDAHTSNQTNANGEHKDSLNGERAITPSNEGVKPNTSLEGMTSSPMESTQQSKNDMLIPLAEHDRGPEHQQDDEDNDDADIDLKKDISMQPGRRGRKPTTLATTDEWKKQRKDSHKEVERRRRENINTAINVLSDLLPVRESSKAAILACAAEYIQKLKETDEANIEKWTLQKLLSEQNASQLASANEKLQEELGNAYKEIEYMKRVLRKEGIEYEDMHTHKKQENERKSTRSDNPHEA
Method: competition protein-binding microarray
Molecule type: double-stranded DNA, one strand shown
Matrix: in vitro
Concentration: 2 µM
Setting: whole 60-bp probe, lowest competitor level
With: Pho4 competitor, 0.05 µM
Reading: higher = stronger binding
Strand	fluorescence intensity
TTCTGATAAGCCCATCACGTGACGGTGGTTCTAAGAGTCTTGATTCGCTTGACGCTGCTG	10500 a.u.
TTCCATCTGGGGACCCACATGTGTGGGTTTGGATTGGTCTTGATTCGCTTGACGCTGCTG	66.7 a.u.
GTCTTGTCTCATTGTCACTCAACTTTCCCCACTTCAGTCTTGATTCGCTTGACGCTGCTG	81.2 a.u.
TTGGCGACTATTTAGCACGTGAGTATACTTGATTAAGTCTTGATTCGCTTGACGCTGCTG	2990 a.u.
CTAACGAAGGTTTGTATGGTGGGTGACAAGCCAAGTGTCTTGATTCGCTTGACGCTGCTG	71.6 a.u.
ACTAATGCAGGCAGAAGGAGATCCATACCTTCAAATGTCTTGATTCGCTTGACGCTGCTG	66.8 a.u.
TGCGCAACAACTTGTCACTCGACTTTATGTCTAGAAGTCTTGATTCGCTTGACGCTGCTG	76.3 a.u.
ATAGGTGCCATCACAATCGTGCCGAAATCTACCACTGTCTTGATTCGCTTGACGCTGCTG	54.2 a.u.

Study 3
SMILES: O=C(N[C@H]1CCCCC/C=C\C2C[C@@]2(C(=O)O)NC(=O)[C@@H]2C[C@@H](Oc3ccncc3)CN2C1=O)OC1CCCC1 (some centres unmarked)
Method: competition with immobilised ligand
Concentration: 1 µM
target	assay	remaining binding [%]
Fibroblast growth factor receptor 3 (FGFR3, Homo sapiens, UniProt P22607, G697C)	cell-free assay	100
5'-AMP-activated protein kinase catalytic subunit alpha-2 (PRKAA2, Homo sapiens, UniProt P54646)	cell-free assay	71
Death-associated protein kinase 2 (DAPK2, Homo sapiens, UniProt Q9UIK4)	binding	100
Tyrosine-protein kinase ABL1, phosphorylated (ABL1, Homo sapiens, UniProt P00519, Q252H)	binding	85
Receptor-type tyrosine-protein kinase FLT3 (FLT3, Homo sapiens, UniProt P36888, D835V/ITD)	binding	100
Epidermal growth factor receptor (EGFR, Homo sapiens, UniProt P00533)	cell-free assay	99
Death-associated protein kinase 1 (DAPK1, Homo sapiens, UniProt P53355)	binding	83
Serine/threonine-protein kinase WNK2 (WNK2, Homo sapiens, UniProt Q9Y3S1)	binding	100
Serine/threonine-protein kinase SIK2 (SIK2, Homo sapiens, UniProt Q9H0K1)	binding	100
Serine/threonine-protein kinase 35 (STK35, Homo sapiens, UniProt Q8TDR2)	binding	100
Mitogen-activated protein kinase 8 (MAPK8, Homo sapiens, UniProt P45983)	binding	86
Protein kinase C eta type (PRKCH, Homo sapiens, UniProt P24723)	cell-free assay	91

Other studies, line by line
Structure (SMILES)	system	setting	quantity	value
O=c1[nH]ncc(Nc2ccc3[nH]ncc3c2)c1Br	human, microsomes or S9	2 µM, 0.5 h	remaining compound	56.1%

For quick reference, copied from above (study 2):
Strand	fluorescence intensity
TTCCATCTGGGGACCCACATGTGTGGGTTTGGATTGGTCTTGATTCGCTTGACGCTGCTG	66.7 a.u.
GTCTTGTCTCATTGTCACTCAACTTTCCCCACTTCAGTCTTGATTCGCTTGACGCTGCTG	81.2 a.u.
TTGGCGACTATTTAGCACGTGAGTATACTTGATTAAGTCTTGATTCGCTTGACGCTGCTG	2990 a.u.
